Measured values gathered from unrelated publications.
Every numbered part comes from another study and shows a few of its results, in no order.

Set 1 — method: protein binding microarray; molecule type: double-stranded DNA, one strand shown; medium: in vitro; concentration: not given; relative to: not given; direction: higher = stronger binding
Target: Histone acetyltransferase KAT6A, both winged helices, GST fusion (KAT6A, Homo sapiens, UniProt Q92794, residues 1-181)
Setting: 8-mer, flanks averaged, mean of 2 arrays, mostly near background
Target sequence (chain): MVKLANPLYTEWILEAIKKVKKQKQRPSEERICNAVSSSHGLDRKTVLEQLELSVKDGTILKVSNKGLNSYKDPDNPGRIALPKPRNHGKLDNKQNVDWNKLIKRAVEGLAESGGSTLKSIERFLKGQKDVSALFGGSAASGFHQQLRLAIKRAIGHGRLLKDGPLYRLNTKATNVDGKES
Strand	E-score
AACCGACC	0.107
GTCCCTCA	-0.165
GACGTGCA	-0.0994
ATATTGGC	-0.125
CACATAGG	-0.167
GAGGTTCC	0.0783
GTAATGAA	0.097
CTGGGAAA	-0.109
CAATGTCG	0.0507
GGTTCATA	0.0688
CCACGGGA	0.206
GCCATGCC	0.122
ACCAATGC	-0.0123
GGATTCCC	-0.0158
AGCACTGC	0.00483
CTGACCCC	-0.119
ACCAATTA	-0.124
AACCAATG	-0.3
AGACTTGC	-0.088
GATGCACA	-0.025
CAGGCAGC	-0.106
GTGACGCA	0.132

Set 2 — method: RNA Bind-n-Seq; molecule type: RNA; medium: in vitro; concentration: 1 µM; setting: whole 134-nt RNA, ends assumed; with: 150 mM KCl; relative to: input library; direction: higher = stronger binding
Target: Ras GTPase-activating protein-binding protein 1, RRM domain (G3BP1, Homo sapiens, UniProt Q13283)
UniProt Q13283, sequence (whole entry, looked up): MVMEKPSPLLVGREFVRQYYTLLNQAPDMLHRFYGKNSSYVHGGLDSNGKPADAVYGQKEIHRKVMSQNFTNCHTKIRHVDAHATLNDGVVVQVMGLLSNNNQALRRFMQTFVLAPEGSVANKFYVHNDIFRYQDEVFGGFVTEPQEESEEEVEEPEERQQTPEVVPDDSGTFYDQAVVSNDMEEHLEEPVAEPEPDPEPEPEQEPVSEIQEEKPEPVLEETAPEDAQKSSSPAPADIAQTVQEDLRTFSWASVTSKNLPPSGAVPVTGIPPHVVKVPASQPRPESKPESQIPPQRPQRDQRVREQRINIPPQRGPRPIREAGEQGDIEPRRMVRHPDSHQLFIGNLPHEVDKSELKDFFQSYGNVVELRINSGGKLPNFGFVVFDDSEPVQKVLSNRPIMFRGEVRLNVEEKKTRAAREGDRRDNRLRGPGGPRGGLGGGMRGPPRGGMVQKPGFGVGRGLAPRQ
Strand	log2 enrichment
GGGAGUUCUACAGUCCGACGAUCUUGCCACUCUAAAUUCAGAAGAGGAGAGCGACCCUCCAACCUACAAGGAUGCCUUCCCUCCACUUCCUGAGAAAGCUGCUUGCCUGGAAAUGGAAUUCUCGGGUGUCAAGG	-0.0639
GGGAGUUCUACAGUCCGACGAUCAAGUCCUGUGCUACACAUCGUAUGUACCGAAUCGGGAAAGGGAAAAAGGGUUUGGGAAAGUAUUAUGUUACGCCGUUCGGAUCUGCACUUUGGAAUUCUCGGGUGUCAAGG	0.533
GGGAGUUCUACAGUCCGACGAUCCAAGUCCUGUGCUACACAUCGUAUGUACCGAAUCGGGUUUUUUUGGGAGGGUGGGAAAGUAUUAUGUUACGCCGUUCGGAUCUGCACUUCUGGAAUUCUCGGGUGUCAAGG	0.483
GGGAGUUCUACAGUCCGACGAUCACCAUGCAGGUGGGCAUCUUUGGGAAGUGUGGCAAGGGGGGGAUAGGGAGGGGGGUAACACUUUGGGAACAGGUGGUCCCAGGUCGUUUCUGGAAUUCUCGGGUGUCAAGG	-0.461
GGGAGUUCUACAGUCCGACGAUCGUCCUGUGCUACACAUCGUAUGUACCGAAUCGGUUUUUGGGUUUUUGGGGUUUUUGGGAAAGUAUUAUGUUACGCCGUUCGGAUCUGCACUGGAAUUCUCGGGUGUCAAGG	-0.179
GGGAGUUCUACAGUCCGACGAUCUCCUGUGCUACACAUCGUAUGUACCGAAUCGGGAAAAAAGGGAAAAAAGGAAAAAAGGGAAAGUAUUAUGUUACGCCGUUCGGAUCUGCAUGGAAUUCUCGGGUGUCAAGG	0.0425
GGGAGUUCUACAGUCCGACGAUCGCAGGAAGUAAAAACAAAUGGAAAUGCUUCGGAUAGAGGCAGGGGUGGGGGUUGCUAAGGAAAGGGUGGGAUGGGAGUGGGUAAAGAGUUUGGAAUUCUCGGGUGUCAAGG	1.22
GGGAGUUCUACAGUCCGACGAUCAGUCCUGUGCUACACAUCGUAUGUACCGAAUCGGGAAAAAGGGAAAAAGGAAAAAGGAAAGUAUUAUGUUACGCCGUUCGGAUCUGCACUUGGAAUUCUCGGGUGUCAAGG	0.00923
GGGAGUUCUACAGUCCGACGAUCAGUCCUGUGCUACACAUCGUAUGUACCGAAUCGGGAAAAGGGGAAAAGGGGAAAAGGAAAGUAUUAUGUUACGCCGUUCGGAUCUGCACUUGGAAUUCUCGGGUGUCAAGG	-0.0286
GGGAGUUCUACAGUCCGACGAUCCCUGUGCUACACAUCGUAUGUACCGAAUCGGGAAAAAAAGGGAAAAAGGGUUUUUUUGGGAAAGUAUUAUGUUACGCCGUUCGGAUCUGCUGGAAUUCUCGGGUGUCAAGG	-0.149
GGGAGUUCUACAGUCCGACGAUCUCCUGUGCUACACAUCGUAUGUACCGAAUCGGGGCCCCCGGGCCCCCGGGGCCCCCGGGAAAGUAUUAUGUUACGCCGUUCGGAUCUGCAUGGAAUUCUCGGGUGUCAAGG	-0.701
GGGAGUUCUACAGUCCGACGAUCUCCUCAAGUCCUGUGCUACACAUCGUAUGUACCGAAUCGGUGGUGGGGUGGGAAAGUAUUAUGUUACGCCGUUCGGAUCUGCACUUCCAGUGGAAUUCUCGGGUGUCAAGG	-0.113
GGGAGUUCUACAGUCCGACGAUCUGGGAGGUGGAUUUUGUUUAUUUUUUUAGCUCAUUUCCAGGGGUGGGAAUUUUUUUUUAAUAUGUGGCAUGAAUAAAGUUGUUUUUGAAAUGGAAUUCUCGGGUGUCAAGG	1.94
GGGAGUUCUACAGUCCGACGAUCCCUGUGCUACACAUCGUAUGUACCGAAUCGGGGAAAAAAAGGGGUUUUUUUGGGGAGGGGAAAGUAUUAUGUUACGCCGUUCGGAUCUGCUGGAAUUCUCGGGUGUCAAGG	0.581

Set 3 — method: universal PBM; molecule type: double-stranded DNA, one strand shown; medium: in vitro; concentration: 600 nM; direction: higher = stronger binding
Target: Sal-like protein 4, full length isoform A (SALL4, Homo sapiens, UniProt Q9UJQ4, residues 1-1053)
UniProt Q9UJQ4, sequence (whole entry, looked up): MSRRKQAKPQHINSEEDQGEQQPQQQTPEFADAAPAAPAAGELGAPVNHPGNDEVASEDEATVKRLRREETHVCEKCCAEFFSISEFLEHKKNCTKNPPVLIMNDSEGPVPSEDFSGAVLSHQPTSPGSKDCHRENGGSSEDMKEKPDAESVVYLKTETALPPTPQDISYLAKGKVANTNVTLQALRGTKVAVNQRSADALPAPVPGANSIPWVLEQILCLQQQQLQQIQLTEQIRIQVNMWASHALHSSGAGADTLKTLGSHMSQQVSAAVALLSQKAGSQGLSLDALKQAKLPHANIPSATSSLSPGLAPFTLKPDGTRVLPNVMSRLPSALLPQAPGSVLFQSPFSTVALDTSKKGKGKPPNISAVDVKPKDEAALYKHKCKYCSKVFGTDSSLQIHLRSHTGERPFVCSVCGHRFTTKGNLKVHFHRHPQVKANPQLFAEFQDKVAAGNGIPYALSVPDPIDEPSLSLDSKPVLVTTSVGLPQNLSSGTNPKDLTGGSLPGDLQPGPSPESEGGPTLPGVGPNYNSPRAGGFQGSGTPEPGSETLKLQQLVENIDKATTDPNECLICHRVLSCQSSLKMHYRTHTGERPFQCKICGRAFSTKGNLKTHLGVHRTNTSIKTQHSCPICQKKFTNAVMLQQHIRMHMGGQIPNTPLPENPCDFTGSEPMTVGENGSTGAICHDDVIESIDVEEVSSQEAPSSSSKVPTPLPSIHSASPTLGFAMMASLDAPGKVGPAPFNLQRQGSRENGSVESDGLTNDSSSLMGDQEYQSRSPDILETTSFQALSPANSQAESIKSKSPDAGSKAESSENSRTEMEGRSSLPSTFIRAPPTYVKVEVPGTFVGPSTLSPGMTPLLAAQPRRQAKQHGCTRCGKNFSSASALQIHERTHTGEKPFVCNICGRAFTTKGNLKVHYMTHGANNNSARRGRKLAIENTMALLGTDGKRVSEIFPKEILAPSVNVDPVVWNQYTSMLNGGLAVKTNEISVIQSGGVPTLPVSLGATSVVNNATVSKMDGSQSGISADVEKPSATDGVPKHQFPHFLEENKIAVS
Setting: 8-mer, flanks averaged, mean of replicates
Strand	E-score
AAAAGTAT	0.284
AGCTGGCA	-0.266
CTCCTTTA	0.0477
GAGCATCC	-0.299
ATGTTGGC	0.0475
TTCGTAAA	0.282
GGGAAAAC	0.00723
AGCCCTAA	-0.0145
AAGATTTA	0.235
CATTATGG	0.153
GTCCTGGA	-0.246
GAGGCTCC	-0.295
CTTCCAGA	-0.0598
CTGCCCAG	-0.348
ACCGCCTA	-0.141
GGATACCC	-0.238
ATCAATGC	0.0114
AGCCATGG	-0.191
CTCAGTCC	-0.168

Set 4 — method: competition protein-binding microarray; molecule type: double-stranded DNA, one strand shown; medium: in vitro; concentration: 2 µM; with: Pho4 competitor, 0.05 µM; direction: higher = stronger binding
Target: Centromere-binding protein 1, full length, His-tagged (CBF1, Saccharomyces cerevisiae, UniProt P17106, residues 1-351)
UniProt P17106, sequence (whole entry, looked up): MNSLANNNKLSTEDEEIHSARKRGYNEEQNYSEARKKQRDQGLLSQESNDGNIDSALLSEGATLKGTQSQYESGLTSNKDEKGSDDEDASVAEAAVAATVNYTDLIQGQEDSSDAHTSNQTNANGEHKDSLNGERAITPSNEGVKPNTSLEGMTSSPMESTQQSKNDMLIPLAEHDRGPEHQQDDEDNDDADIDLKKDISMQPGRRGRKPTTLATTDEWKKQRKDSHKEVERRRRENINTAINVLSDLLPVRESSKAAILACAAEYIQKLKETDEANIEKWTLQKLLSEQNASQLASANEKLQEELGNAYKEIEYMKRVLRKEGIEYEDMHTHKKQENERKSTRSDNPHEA
Setting: whole 60-bp probe, lowest competitor level
Strand	fluorescence intensity [a.u.]
GTTAAAACTCAATTATGCGTGGGACTTCTCAATTAGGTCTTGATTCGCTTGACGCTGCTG	81.9
TAAGGTACTATCTTTGACGTGGCAATGCGGGATATTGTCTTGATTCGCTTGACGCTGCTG	83.1
ATCGTTTTGTTGACCAGCATGATAAATTCTGGAGCCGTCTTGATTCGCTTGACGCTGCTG	97.4
CGCTGCCGTTCATGATACGTGTCCTCAGGACGTCTGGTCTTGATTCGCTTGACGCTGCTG	44.9
TGCGCAACAACTTGAGTAGTGGGTGTATGTCTAGAAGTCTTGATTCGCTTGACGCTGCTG	62
GTCTTGTCTCATTGATACGTGGGTGTCCCCACTTCAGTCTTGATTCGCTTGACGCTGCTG	91.9
AGGAAACAATTGGTGAGCATGACAAACTTGTTTGGCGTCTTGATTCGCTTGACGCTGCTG	79.8
TCATAGAGACTTCCACGCGTGGCAAGGTGATTGGCCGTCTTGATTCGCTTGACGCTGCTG	75.7
CGGGGTTAAGTTTGGGGGGTGGGTGGCTTGCAGCAGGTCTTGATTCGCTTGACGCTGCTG	140
TTTCTGAAAAAAATGCGCGTGAAAAGGAATCATTTGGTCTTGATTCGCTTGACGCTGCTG	111
AAAGCGGTAATTTGCGGTGTGGGTGCAGATATCTATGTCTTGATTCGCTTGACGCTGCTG	75.6
CATACCCAACCTTTTCACGTGGAATAAGATATTTGTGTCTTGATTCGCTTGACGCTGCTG	656
CGGGGTTAAGTTTGCCAAGTGGGTGGCTTGCAGCAGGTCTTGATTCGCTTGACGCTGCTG	62.2
GTCCGAAAGGACAATCACATGCAGAGGTTCAAAGTAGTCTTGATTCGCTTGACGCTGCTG	329
CTTCTGTAAATTTGGTTCGTGGGTGGACGCGCCCCGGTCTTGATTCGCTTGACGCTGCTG	87.4
AAATTACTAAGTTGACCTGTGGGTGACGCCGTATGAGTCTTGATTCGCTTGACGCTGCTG	68.9
TGCGCAACAACTTTTCACGTGGTATTATGTCTAGAAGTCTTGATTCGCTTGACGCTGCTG	1260

Set 5 — method: RNA Bind-n-Seq; molecule type: RNA; medium: in vitro; concentration: 100 nM; relative to: input RNA pool; direction: higher = stronger binding
Target: RING finger protein unkempt homolog, zinc fingers 1-6, SBP tag (UNK, Homo sapiens, UniProt Q9C0B0, residues 30-357)
UniProt Q9C0B0, sequence (30-357, looked up): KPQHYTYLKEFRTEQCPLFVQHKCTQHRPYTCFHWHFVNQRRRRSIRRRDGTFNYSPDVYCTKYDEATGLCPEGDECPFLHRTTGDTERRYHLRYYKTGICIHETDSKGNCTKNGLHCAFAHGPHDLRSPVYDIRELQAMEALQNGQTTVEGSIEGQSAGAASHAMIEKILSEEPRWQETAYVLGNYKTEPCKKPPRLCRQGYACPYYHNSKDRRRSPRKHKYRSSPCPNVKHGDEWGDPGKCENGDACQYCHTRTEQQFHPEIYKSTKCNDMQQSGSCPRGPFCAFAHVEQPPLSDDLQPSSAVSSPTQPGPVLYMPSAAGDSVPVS
Setting: RNA with constant flanks, vertebrate orthologous sites, ends assumed
Strand	bound/input enrichment [ratio]
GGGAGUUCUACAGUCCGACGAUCGCACAUGCCGCUAUCACCAAAAGUAAACUACCACUUUUCAAAUUUCAUUCAGAGCUGUUUUAGUGUUUCCUAUUCCCCACCUUUCCCACUACUUUCAAUGAUGUUUUCCUUCUGACACUUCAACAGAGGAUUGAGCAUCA	2.11
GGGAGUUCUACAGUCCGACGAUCACAGGAGCAGCAUAGGCUGUUUGAGCUUUGGGGAAAUGAACUUUGCUUUUUAUAUUUAACUAGGAUACUUUUAUAUGAUGGGUGCUUUGAGUGUGAAUGCAGCAGGCUCUCUUGUUUCCGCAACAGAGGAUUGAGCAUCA	1.98
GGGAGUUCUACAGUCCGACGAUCUCCGGGUGUACCUGUGGGCGCUGCUGGCCACGUAGCGUCAUUUGAUUUAUGACCUUGACAUAAUAGAUAGGCUUGUGGUUUUUUAAUUUAAAGAUAUUAAGACUUAAUUUACUAAAAUUUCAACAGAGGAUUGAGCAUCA	0.478
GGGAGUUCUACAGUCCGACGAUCAUUCAAACCUGUUGUACCAUGGCCUCAUGUUGAAGGCGUAGAAGUGGACUUAGAGUCUAUUAGAAGAAAAAACAAGGCGAAAAAUGAACAAGAGCGACAUGCUGGUGGAGAUAACCAGAACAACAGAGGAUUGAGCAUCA	0.307
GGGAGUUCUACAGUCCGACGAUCAAGCAUUUUGCCACUUGGAUGCGGUCUGCACAGGAAGCUGCUGACCCCUCCACAAUACCACAUUAAUAUGUUUUUUUUUUAAGAUGUUAGGACCUAACUGAAUUUACUAAAAUGUAAUUACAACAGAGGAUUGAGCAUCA	0.318
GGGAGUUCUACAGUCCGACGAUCUUUUAUUGAUCAGGUCUGUAAAUGUGUACUAGAAAAAUCAGAGUUUAUUUAUAAAUAGGAUAGAUUAUUUAAAGAGGUUUUCCUCCCCGAUAUCAUGGUAUGCAUAAUUCUGUGUGUUACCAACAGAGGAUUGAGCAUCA	0.66
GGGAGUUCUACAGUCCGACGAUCCCUGUGAGCGUCUACAGACAGCUCACCAUUUUUGUCCUGUAUCUGUAAACACUUUCUGUUUAGUCUUUUUCUUGUAAAGUUGAUGUUCUUUAAAAUCGUUAAUGUAUCACAGGGCUUAUGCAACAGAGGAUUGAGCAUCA	0.584
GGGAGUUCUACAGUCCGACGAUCGUGUUUUGGUACCACUCAAUGUACCAAUACUCAUCCUUUUUUCAUUAUACCAACUAUCGCUAGAAGUAGGAGUUUAAUAUUUUAAAAAUUUUACAUUGCUGUAUAUUCAAAAUUUUAAAGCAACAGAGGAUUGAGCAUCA	0.517
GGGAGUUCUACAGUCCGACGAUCCUAUACGCUUUUAAAGAUAACUUCCUUGUAAGGCGCUUUGGCUAGUCAUAUAUUUACUCAUAUUUACAUAUCUGUGUUUUAUAAUAGCGGUGUAGAUUCAAAGGGGCCUCCUUUUGGGUUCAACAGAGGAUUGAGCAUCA	0.584
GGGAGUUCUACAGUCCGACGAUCAGUCCCCUGGGCCGGGACAGAUUUUUUUUUAACGUCUUGAAACUUAAAACUCUGUGCUUGUAGGAGACUGUAACCUUUUUGUCUUUUUUUUUUUAAACAAACAACCUCCACCUCCAGUGGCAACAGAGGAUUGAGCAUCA	0.768
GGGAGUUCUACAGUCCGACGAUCAAGUAGUUUUAAGCUUGUUUGCACAGUUCUUUUUUCCAUUGGAAAUGGAAUUCAUUGCCUUAGGUCUUUUAAAAUAGUGUUUUAUUGUUGGGGCUGGCUCUGUGCUUGCAAUCCAGUUUACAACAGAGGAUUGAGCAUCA	2.6

For quick reference, copied from above (set 3):
Strand	E-score
AAAAGTAT	0.284
ATGTTGGC	0.0475
ATCAATGC	0.0114
AAGATTTA	0.235
CTCAGTCC	-0.168
TTCGTAAA	0.282
CTGCCCAG	-0.348
AGCTGGCA	-0.266
GGATACCC	-0.238
